Assay results from different studies.
Numbered parts are unrelated; each lists some results of a single study. Values joined by “and” are separate records of one study, mostly repeats; a detail may differ.
Sequence of UniProt Q9UKT9 (whole entry, looked up): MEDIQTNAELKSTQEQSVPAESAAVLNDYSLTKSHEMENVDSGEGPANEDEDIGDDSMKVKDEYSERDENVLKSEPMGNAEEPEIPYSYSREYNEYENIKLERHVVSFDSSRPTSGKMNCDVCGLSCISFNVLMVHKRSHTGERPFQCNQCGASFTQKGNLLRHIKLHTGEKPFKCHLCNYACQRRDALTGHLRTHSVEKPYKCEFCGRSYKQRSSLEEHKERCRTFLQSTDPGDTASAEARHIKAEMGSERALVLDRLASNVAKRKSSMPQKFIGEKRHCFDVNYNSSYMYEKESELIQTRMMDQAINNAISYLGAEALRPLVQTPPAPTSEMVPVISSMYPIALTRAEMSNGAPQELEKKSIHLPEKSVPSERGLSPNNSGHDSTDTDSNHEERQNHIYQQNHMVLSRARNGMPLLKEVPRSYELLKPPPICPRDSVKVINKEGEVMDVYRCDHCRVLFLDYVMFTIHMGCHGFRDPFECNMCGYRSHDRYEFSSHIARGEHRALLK
Sequence of UniProt Q9UJQ4 (whole entry, looked up): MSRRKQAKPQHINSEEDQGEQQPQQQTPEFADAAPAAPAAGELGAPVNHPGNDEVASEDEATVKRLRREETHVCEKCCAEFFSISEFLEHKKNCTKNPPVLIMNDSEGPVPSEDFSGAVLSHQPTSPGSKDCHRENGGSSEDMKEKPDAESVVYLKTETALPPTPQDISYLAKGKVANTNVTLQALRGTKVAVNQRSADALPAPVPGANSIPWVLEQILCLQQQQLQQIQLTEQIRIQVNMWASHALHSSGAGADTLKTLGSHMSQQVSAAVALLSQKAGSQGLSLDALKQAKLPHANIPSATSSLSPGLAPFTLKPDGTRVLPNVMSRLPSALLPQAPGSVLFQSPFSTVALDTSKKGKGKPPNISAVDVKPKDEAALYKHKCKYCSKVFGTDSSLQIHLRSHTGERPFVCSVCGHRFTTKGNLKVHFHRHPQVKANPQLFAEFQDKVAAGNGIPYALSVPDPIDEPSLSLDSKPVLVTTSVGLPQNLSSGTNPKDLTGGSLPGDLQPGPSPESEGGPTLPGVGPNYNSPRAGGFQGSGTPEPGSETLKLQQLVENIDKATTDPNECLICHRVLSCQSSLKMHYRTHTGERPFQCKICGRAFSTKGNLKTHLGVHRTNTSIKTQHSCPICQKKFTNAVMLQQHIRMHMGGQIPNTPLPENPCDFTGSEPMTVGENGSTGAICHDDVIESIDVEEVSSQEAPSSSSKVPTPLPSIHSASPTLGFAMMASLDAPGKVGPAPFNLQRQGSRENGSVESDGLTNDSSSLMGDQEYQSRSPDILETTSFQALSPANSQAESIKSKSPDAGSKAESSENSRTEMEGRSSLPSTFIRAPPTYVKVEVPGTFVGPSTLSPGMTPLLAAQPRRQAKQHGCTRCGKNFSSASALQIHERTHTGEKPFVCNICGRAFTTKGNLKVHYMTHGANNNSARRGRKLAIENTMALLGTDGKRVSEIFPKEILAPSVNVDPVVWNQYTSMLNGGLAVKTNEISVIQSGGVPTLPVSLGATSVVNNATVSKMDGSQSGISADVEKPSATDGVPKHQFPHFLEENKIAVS
Sequence of UniProt P15170 (whole entry, looked up): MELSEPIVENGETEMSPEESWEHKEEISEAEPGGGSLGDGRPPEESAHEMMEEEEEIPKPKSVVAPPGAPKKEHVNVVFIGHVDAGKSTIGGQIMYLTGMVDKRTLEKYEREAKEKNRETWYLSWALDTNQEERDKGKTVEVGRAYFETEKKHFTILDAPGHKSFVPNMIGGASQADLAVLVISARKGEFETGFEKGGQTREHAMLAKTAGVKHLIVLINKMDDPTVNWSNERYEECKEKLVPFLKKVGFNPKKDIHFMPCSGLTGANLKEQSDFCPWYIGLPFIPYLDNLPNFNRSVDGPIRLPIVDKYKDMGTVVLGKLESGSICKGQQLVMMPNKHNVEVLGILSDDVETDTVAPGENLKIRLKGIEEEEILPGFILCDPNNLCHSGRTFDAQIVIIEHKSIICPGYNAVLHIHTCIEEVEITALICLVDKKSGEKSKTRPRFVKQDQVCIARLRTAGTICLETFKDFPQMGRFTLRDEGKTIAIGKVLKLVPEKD
Sequence of UniProt Q9UBE8 (whole entry, looked up): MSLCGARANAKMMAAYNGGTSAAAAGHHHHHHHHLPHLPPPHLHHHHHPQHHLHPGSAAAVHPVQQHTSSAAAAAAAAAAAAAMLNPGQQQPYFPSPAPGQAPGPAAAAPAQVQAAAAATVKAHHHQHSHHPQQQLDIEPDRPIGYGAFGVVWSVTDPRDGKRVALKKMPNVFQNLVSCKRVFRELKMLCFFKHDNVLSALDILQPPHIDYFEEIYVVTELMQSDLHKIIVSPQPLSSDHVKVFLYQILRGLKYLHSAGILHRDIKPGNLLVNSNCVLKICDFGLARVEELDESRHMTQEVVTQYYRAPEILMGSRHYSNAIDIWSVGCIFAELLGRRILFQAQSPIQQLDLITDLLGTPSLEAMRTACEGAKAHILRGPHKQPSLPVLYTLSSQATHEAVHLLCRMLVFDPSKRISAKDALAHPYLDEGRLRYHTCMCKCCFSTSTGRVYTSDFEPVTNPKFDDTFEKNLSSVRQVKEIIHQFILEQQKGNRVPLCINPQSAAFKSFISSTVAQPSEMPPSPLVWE
Sequence of UniProt Q13976 (whole entry, looked up): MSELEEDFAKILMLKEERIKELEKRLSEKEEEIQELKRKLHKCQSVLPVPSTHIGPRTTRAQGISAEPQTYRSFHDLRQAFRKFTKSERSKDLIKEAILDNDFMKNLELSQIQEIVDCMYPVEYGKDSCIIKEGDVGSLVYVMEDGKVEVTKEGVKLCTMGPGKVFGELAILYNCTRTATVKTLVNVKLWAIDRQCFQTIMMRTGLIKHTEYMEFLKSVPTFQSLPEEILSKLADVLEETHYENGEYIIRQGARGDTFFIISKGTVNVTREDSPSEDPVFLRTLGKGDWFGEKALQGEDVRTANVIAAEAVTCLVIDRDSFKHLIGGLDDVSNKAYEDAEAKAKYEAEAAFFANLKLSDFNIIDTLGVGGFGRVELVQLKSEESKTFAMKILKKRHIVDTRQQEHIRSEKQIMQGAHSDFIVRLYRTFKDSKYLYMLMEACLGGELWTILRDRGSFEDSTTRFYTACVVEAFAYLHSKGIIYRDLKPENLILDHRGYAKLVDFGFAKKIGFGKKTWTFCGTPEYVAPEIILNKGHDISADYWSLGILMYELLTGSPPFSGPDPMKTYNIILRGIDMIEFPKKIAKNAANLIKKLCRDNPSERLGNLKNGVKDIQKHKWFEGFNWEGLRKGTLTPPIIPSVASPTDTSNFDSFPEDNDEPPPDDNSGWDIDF

Sample 1 — host: human; sample: microsomes or S9; concentration: 2 µM; time: 0.5 h
Structure (SMILES)	remaining compound
COc1ccc(C2c3cccn3-c3sc4c(c3CN2C(=O)NC(C)C)CCCC4)cc1 (centres unmarked)	4.28%
N#Cc1cccn2cc(-c3cccc(Br)c3)nc12	7.6%
O=c1ccccn1Cc1nc2cc(Cl)ccc2n1CCO	> 99%
CN(Cc1ccccc1)c1nc2ccccc2n1CC(O)COc1ccccc1 (centres unmarked)	0.694%
COc1ccc(OC)c(CNC(=O)C23CCCC=C2N(C2CCCC2)C(=O)CC3)c1 (centres unmarked)	1.18%
CS(=O)(=O)c1ccc(-c2cc(F)c(OCC3CCNCC3)c(F)c2)cc1	28.5%
COc1cccc(-c2cn3ncnc3n2Cc2cccc(Br)c2)c1	54.7%
CS(=O)(=O)N1CCN(CCCOc2ccc3c(c2)CN(Cc2cccnc2)C3=O)CC1	62%

Sample 2 — mode: degrader
Structure (SMILES): O=C1CCC(N2Cc3cc(C4CCN(Cc5ccccc5)CC4)ccc3C2=O)C(=O)N1 (centres unmarked)
CSNK1A1: Casein kinase I isoform alpha (CSNK1A1, Homo sapiens, UniProt P48729)
Sequence of UniProt P48729 (whole entry, looked up): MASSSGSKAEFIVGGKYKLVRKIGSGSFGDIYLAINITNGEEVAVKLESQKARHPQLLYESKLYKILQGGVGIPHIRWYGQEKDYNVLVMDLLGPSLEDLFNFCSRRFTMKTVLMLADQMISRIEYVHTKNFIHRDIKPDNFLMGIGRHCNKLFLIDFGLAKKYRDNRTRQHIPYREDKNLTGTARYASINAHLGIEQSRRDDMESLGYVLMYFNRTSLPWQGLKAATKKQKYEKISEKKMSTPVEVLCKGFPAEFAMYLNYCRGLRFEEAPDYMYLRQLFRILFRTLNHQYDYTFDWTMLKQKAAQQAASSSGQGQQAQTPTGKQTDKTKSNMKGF
CRBN/Zinc finger protein Helios: CRBN/Zinc finger protein Helios (Homo sapiens, UniProt Q96SW2+Q9UKS7)
Sequence of UniProt Q9UKS7 (whole entry, looked up): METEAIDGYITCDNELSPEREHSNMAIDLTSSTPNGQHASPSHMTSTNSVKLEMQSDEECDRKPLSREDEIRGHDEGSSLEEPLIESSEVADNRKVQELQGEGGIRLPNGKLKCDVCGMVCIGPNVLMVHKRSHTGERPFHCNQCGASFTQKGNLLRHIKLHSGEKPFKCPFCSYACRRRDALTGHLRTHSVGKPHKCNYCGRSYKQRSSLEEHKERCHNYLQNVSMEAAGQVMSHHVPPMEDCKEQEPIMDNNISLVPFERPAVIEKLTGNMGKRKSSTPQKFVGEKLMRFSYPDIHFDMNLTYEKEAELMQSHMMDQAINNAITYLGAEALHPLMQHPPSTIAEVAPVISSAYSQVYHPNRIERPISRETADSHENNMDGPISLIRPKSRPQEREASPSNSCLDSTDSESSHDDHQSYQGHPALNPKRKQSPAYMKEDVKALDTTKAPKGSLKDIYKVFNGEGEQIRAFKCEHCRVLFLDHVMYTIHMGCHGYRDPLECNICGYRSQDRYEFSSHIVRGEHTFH
Sequence of UniProt Q96SW2 (whole entry, looked up): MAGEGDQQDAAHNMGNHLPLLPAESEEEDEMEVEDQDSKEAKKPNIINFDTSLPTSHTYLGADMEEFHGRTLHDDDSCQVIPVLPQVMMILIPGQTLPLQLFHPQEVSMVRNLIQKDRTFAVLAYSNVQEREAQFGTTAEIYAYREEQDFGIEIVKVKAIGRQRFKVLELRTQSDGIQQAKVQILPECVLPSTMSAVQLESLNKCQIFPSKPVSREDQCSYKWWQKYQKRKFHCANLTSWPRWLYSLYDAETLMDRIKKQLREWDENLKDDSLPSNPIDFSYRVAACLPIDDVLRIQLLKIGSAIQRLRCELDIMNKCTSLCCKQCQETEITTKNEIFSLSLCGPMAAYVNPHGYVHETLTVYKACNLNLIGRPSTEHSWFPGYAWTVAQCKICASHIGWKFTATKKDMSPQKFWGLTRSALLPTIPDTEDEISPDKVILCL
target	method	cell line	concentration	time	remaining protein
Zinc finger protein Aiolos (Homo sapiens, UniProt Q9UKT9)	HiBiT	HEK293	0.001524 µM	–	90.8% and 88.9%
Sal-like protein 4 (SALL4, Homo sapiens, UniProt Q9UJQ4)	HiBiT	HEK293	0.004572 µM	–	65.2% and 61.8%
CSNK1A1	HiBiT	HEK293 HiBiT-CK1α	10000 nM	–	94.7% and 88.5%
Zinc finger protein Eos (IKZF4, Homo sapiens, UniProt Q9H2S9)	HiBiT	HEK293	0.0004572 µM	3 h	112%
CRBN/Zinc finger protein Helios	flow cytometry	primary human regulatory T cells	1 µM	3 h	87.5%
CRBN/Zinc finger protein Helios	flow cytometry	primary human regulatory T cells	0.03704 µM	6 h	71.1%
GSPT1 (Homo sapiens, UniProt P15170)	HiBiT	HEK293	0.0005081 µM	–	108% and 102%
CSNK1A1	HiBiT	HEK293	3.333 µM	6 h	84.5%
DNA-binding protein Ikaros (Homo sapiens, UniProt Q13422)	HiBiT	HEK293	0.01372 µM	6 h	94.7%
CSNK1A1	HiBiT	HEK293 HiBiT-CK1α	1.524 nM	–	102% and 90%

Sample 3 — effect on: enzyme activity; mode: inhibitor; concentration: 0.5 µM; reference: control
Target: cAMP-dependent protein kinase catalytic subunit PRKX (PRKX, Homo sapiens, UniProt P51817)
Residues (P51817 1-358): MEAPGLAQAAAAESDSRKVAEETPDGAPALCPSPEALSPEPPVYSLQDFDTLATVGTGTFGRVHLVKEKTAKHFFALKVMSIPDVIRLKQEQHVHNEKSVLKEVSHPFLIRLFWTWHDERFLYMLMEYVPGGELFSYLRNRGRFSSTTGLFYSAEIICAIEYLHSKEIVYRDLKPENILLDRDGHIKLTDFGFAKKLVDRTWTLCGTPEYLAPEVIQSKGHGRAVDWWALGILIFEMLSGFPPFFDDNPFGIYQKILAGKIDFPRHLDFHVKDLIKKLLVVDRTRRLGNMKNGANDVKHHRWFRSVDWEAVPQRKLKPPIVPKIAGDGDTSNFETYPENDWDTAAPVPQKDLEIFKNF
SMILES	remaining activity
C#Cc1cccc(Nc2ncnc3cc(OCCOC)c(OCCOC)cc23)c1	111%
CC(C)[C@H](CO)Nc1nc(Nc2cc(N)cc(Cl)c2)c2ncn(C(C)C)c2n1	101%
Oc1ccc(-c2nc(-c3ccncc3)c(-c3ccc(F)cc3)[nH]2)cc1	84%
Nc1ncnc2n[nH]c(Nc3ccc(F)cc3)c12	90.4%
COc1ccc(OC)c2c(=S)c3ccccc3[nH]c12	93.5%
Cc1nc(-c2ccccc2)c(-c2ccncc2)o1	101%
Cn1c2ccccc2c2c3c(c4c5ccccc5n(CCC#N)c4c21)CNC3=O	60.1%
Nc1[nH]nc2nc3ccccc3nc12	102%
O=C(Nc1cccc(Nc2cc(Nc3cccc(C(F)(F)F)c3)ncn2)c1)C1CC1	107%
O=C(CCCc1ccc(-c2ccccc2F)cc1)Nc1ccc(O)cc1	106%
O=S(=O)(c1cccc2cnccc12)N1CCCNCC1	23.5%
COc1ccc(CNC(=O)Nc2ncc([N+](=O)[O-])s2)cc1	72.1%
COc1ccc(C(=O)Nc2sc3c(c2C(N)=O)CCCC3)cc1OC	101%
O=c1c2ccccc2[nH]c(=S)n1CCN1CCC(=C(c2ccc(F)cc2)c2ccc(F)cc2)CC1	106%
N#CC(C#N)=C(N)/C(C#N)=C/c1ccc(O)cc1	93.7%

Sample 4 — effect on: cell-free assay; method: competition with immobilised ligand; concentration: 1 µM
SMILES: CN1CCN(c2cnc3c(C4CCN(C(=O)c5ccc(OC(F)(F)F)cc5N)CC4)ncnc3c2)CC1
target	remaining binding [%]
RIPK1 (Homo sapiens, UniProt Q13546)	100
SRMS (Homo sapiens, UniProt Q9H3Y6)	100
EGFR (Homo sapiens, UniProt P00533, del752-759)	38
Tyrosine-protein kinase ABL1, phosphorylated (ABL1, Homo sapiens, UniProt P00519, M351T)	100
Tyrosine-protein kinase ABL1, non-phosphorylated (ABL1, Homo sapiens, UniProt P00519, H396P)	76
RAF1 (Homo sapiens, UniProt P04049)	75
NLK (Homo sapiens, UniProt Q9UBE8)	100
STK38 (Homo sapiens, UniProt Q15208)	80
HIPK1 (Homo sapiens, UniProt Q86Z02)	99
PRKG1 (Homo sapiens, UniProt Q13976)	83
STK4 (Homo sapiens, UniProt Q13043)	84

Excerpt of the above (sample 1):
Structure (SMILES)	remaining compound
CS(=O)(=O)c1ccc(-c2cc(F)c(OCC3CCNCC3)c(F)c2)cc1	28.5%
COc1cccc(-c2cn3ncnc3n2Cc2cccc(Br)c2)c1	54.7%
CS(=O)(=O)N1CCN(CCCOc2ccc3c(c2)CN(Cc2cccnc2)C3=O)CC1	62%
